{"data": "Published values gathered from unrelated publications", "note": "Parts stem from different laboratories: compare values within a part only."}
{"data": "Set 1", "target": "Krueppel-like factor 3, full length (KLF3, Homo sapiens, UniProt P57682, residues 1-345)", "technique": "protein-binding microarray", "molecule type": "hairpin DNA", "sample": "in vitro", "concentration": "not given", "setting": "whole hairpin DNA, median over replicate spots", "relative to": "not given", "reading": "higher = stronger binding", "chain of UniProt P57682 (whole entry, looked up)": "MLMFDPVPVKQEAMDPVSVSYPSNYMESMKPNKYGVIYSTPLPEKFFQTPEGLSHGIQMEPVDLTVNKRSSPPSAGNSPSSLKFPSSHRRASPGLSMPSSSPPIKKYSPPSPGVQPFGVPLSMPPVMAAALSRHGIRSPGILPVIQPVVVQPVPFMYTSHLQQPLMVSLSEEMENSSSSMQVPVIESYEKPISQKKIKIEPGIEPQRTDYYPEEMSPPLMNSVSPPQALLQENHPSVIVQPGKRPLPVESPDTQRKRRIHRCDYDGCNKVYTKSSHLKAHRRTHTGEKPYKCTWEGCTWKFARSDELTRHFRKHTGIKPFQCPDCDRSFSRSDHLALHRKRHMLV"}
{"Oligonucleotide": "GAGGCCGACCGCGCCCAGCCTCCTGGCTGGGCGCGGTCGGCCTCACACTC (5mC at 34)", "median fluorescence [a.u.]": 8830}
{"Oligonucleotide": "GAGGCCGACCACGCCCAGCCTCCTGGCTGGGCGTGGTCGGCCTCACACTC (5mC at 10)", "median fluorescence [a.u.]": 8330}
{"Oligonucleotide": "GAGGCCGACCACGCACAGCCTCCTGGCTGTGCGTGGTCGGCCTCACACTC", "median fluorescence [a.u.]": 9780}
{"Oligonucleotide": "GAGGCCGACCACCGCCAGCCTCCTGGCTGGCGGTGGTCGGCCTCACACTC", "median fluorescence [a.u.]": 8750}
{"Oligonucleotide": "GAGGCCGACCACGCCCAGCCTCCTGGCTGGGCGTGGTCGGCCTCACACTC (5mC at 14)", "median fluorescence [a.u.]": 9160}
{"Oligonucleotide": "GAGGCCGACCGCGCCCAGCCTCCTGGCTGGGCGCGGTCGGCCTCACACTC", "median fluorescence [a.u.]": 8680}
{"Oligonucleotide": "GAGGCCCACCACGCCCAGCCTCCTGGCTGGGCGTGGTGGGCCTCACACTC (5mC at 7)", "median fluorescence [a.u.]": 9270}
{"Oligonucleotide": "GAGGCCGACCGCGCCCAGCCTCCTGGCTGGGCGCGGTCGGCCTCACACTC (5mC at 16)", "median fluorescence [a.u.]": 9010}
{"data": "Set 2", "target": "RNA binding protein fox-1 homolog 2, RRM domain, GST-SBP tag (RBFOX2, Homo sapiens, UniProt O43251-10, residues 100-194)", "technique": "RNA Bind-n-Seq", "molecule type": "RNA", "sample": "in vitro", "concentration": "365 nM", "setting": "natural RNA segment, single round, ends assumed", "relative to": "no-protein control", "reading": "higher = stronger binding", "shared flanks, not repeated": "GGGAGUUCUACAGUCCGACGAUC … UGGAAUUCUCGGGUGCCAA", "Residues (chain)": "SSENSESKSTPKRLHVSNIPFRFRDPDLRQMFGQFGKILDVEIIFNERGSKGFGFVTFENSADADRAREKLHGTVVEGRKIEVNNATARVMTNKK"}
{"Oligonucleotide": "CUCCCACUGUCCUCAGAGAGCCUGCAUGGAAAUGCUGUCCUCUUCCACUCUCCUCCUCUUUUUGAUACCCACCCUCACUAGCUGCCUCCAGCUCUGGAGUGGGGUGCUAU", "RBNS enrichment (R)": 0.849}
{"Oligonucleotide": "UUCUAGGCUGUUCUGCUCAGAGCGAGGAACCACUGCUCCUCAAUGGGGAGGGAACAUACCACCCAGCCAGGCUUAGCAUUGGGUUUUAUCCUUUAAUAAAAGUUUUAUAA", "RBNS enrichment (R)": 0.331}
{"Oligonucleotide": "GCACUUUCAGUCCAAUAGGUGUAGGAAAUAGCGCUGUUUUUGUUGUGUGUGCAGGGAGGGCAGUUUUCUAAUGGAAUGGUUUGGGAAUAUCCAUGUACUUGUUUGCAAGC", "RBNS enrichment (R)": 1.58}
{"Oligonucleotide": "UUGUGUGAUAAGCACUAAGCAGUCAGUCCCCUGGGGGAAUCUGGCAUAAUUCGGCUAUAAAUGUAGCAAUGCUUGGAAAGGUAGUCAUCAAAUGAGACUAUUUGAGGGGA", "RBNS enrichment (R)": 0.303}
{"Oligonucleotide": "GCAGCUGGUUUUGGCAUCCCCAGCAUCACCACUCUCCCAACCCAUCACCGUGACUGCAGUUCCUGCCCCCAUUCUCUUGGGGUCAGGGAGGGGCUGGGAAGGGCUACUGA", "RBNS enrichment (R)": 0.343}
{"Oligonucleotide": "AUUCCUAAGUUCCUAUCUCCUUCACACUGUACCUAGGGUGAUGGUUUCGGUCAGGCCAUCUCCAGCAGCAUGUCUCUGCUGUGUGGAUGGAGGCCAAGGUCAGAAAGAUG", "RBNS enrichment (R)": 1.26}
{"Oligonucleotide": "UCAGUGUCCUUGGCAGGCUGAUUUCUAGGUAGGAAAUGUGGUAGCCUCACUUUUAAUGAACAAAUGGCCUUUAUUAAAAACUGAGUGACUCUAUAUAGCUGAUCAGUUUU", "RBNS enrichment (R)": 0.998}
{"Oligonucleotide": "AAUUAUUUGUGUUUUUUGAAAUGCCUUCCGUAGGUAACCGACAGUCUUAAGCAGUGCUCCACUAACGGUCACUCAGGGACCACCUACCCAGAACAGACGGGGAAUUGAAA", "RBNS enrichment (R)": 0.568}
{"data": "Set 3", "target": "Histone acetyltransferase KAT6A, winged helix 2, GST fusion (KAT6A, Homo sapiens, UniProt Q92794, residues 85-181)", "technique": "protein binding microarray", "molecule type": "double-stranded DNA, one strand shown", "sample": "in vitro", "concentration": "not given", "setting": "8-mer, flanks averaged, mean of 2 arrays, mostly near background", "relative to": "not given", "reading": "higher = stronger binding", "Residues (chain)": "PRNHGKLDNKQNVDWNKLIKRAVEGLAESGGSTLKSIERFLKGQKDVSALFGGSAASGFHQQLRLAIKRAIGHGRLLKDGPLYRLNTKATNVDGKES"}
{"Oligonucleotide": "ACTGAAAG", "E-score": 0.0844}
{"Oligonucleotide": "CATCGGGG", "E-score": 0.0234}
{"Oligonucleotide": "ACTATTGA", "E-score": 0.0156}
{"Oligonucleotide": "GTTCTACA", "E-score": -0.105}
{"Oligonucleotide": "GGATCGAC", "E-score": 0.135}
{"Oligonucleotide": "AACGATCT", "E-score": -0.0542}
{"Oligonucleotide": "AAGTATGC", "E-score": -0.057}
{"Oligonucleotide": "GTCGATTA", "E-score": -0.0174}
{"data": "Single results of other studies"}
{"Molecule": "AEYLYADGI", "target": "HLA class I histocompatibility antigen, C alpha chain, allele C*04:01 (Homo sapiens, UniProt P10321)", "test": "peptide-MHC binding", "system": "peptide", "setting": "concentration not given", "endpoint": "binding", "value": "inactive"}
{"note": "A few entries again (set 1):"}
{"Oligonucleotide": "GAGGCCGACCACGCCCAGCCTCCTGGCTGGGCGTGGTCGGCCTCACACTC (5mC at 14)", "median fluorescence [a.u.]": 9160}
{"Oligonucleotide": "GAGGCCGACCGCGCCCAGCCTCCTGGCTGGGCGCGGTCGGCCTCACACTC", "median fluorescence [a.u.]": 8680}
{"Oligonucleotide": "GAGGCCCACCACGCCCAGCCTCCTGGCTGGGCGTGGTGGGCCTCACACTC (5mC at 7)", "median fluorescence [a.u.]": 9270}
{"Oligonucleotide": "GAGGCCGACCGCGCCCAGCCTCCTGGCTGGGCGCGGTCGGCCTCACACTC (5mC at 16)", "median fluorescence [a.u.]": 9010}
